Measured values gathered from unrelated publications.
Each numbered part is a random draw from the data of one study; scales do not carry over between parts.

Sample 1
Target: RING finger protein unkempt homolog, zinc fingers 1-6, SBP tag (UNK, Homo sapiens, UniProt Q9C0B0, residues 30-357)
Sequence of UniProt Q9C0B0 (30-357, looked up): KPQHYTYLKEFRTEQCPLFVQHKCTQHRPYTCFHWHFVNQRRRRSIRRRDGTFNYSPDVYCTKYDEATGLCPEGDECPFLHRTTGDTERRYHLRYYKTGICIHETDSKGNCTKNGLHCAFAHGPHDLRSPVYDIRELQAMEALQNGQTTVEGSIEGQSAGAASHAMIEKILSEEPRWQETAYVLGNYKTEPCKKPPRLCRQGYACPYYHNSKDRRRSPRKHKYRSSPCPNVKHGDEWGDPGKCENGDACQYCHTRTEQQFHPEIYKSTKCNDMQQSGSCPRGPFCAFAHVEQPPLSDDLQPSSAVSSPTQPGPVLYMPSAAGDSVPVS
Technique: RNA Bind-n-Seq
Form: RNA
Matrix: in vitro
Concentration: 100 nM
Setting: RNA with constant flanks, vertebrate orthologous sites, ends assumed
Baseline: input RNA pool
Reading: higher = stronger binding
Shared flanks, not repeated: GGGAGUUCUACAGUCCGACGAUC … CAACAGAGGAUUGAGCAUCA
Sequence	bound/input enrichment
CUUAAUUAGAAGGUAGUAUGUGUUUCAUAAAGAAAAGUCUUUAUAAUUUUGUUUGUCAUAUCGUAUUUUGGAAUUUGUAUAAUGAGGACGUUUAGAAGCCAUACCAAUGGCUUUUUUUAA	0.393 ratio
AUAAUCACUCUAACUGUAUUCUGAAUAAAGUGUAACAUUGUGUAGCCUUUUUGUAUAAACUAGACAAAUAGAAAUGGUCCAAUUAGUUUCCUUUUUAAUAUGCUUAAAAUAAGCAGGUGG	2.2 ratio
CUUUUAAUCGACUAUGUCUGUAAAUGUAUAUUGAGAGAAUUGAAGUAUUUAUAAACAGAGUGAUUUAUUUAAGGAAAAGCUUAUCCCUCUUUCCUAUGGUGGUCUGUGUUAAUUCCAUUU	0.14 ratio
AGAAAAUUAUAACCAAGAAUCAGAAGGUAGAAGUACAGGACCAUGGUUAUCAUCUUCACUUAGAAAUAGAUGUACACCUUUGUUCUCUAGAAGGAGGCGAGAGGGUCGAGAUGAGUCUUC	0.595 ratio
GUACUACAAAAAAAAAAUCAUCCUAGUUUUAAGCUAACCACAGUGGUAACGAGUCUGUGCUAGUAGAAUCAUUUACUAUUACUUUUUAAAUUAUCUGCUUUGUUUGAUACCUGAAACCAC	1.94 ratio
AUUGGAUGCAGUGUAAAAUUAUCCAAGGCAGUGACUUCAGCUUUAUAUAUAUAUAAAAUAUAGUUAGUUUUAAAGUUAUUGACAUUUAUUUAAAGUUUUAGAUUGGAUUGUUAUUGCUCU	1.24 ratio
GGGACGCUUUGAUGUAAAAAUUGAAGUUAAGAGCUGAUCACAAGCACAAAUCUUUCCCACUAGCCAUUUAAUAAGUUAAAAAAAGAUACAAAAACAAAAAACCUACUAGUCUUGAACAAA	3.42 ratio
CUGCUUUAUGGGCCUCGCAGAGUUGAAAUAAUGGAAGAGGAAAGUGAACAGUAAACAUUUUAGUAUUUAUGCUUAGGUGUGAAAUGUUACUCGUUGAUCAUUUCUACAAUCCAGAGCUUU	0.444 ratio
AAUAAUGAAUAGUAUUAAAGAAACAUUCUCGUCUUCCUUUACCUUUAAUCCCCUAAUACCUAGUCUACUUUUUAAAUUUUCAGACUUCACUGCUUUUUGAAUUCAUAAUUCCAAUUAUCA	2.33 ratio
UAGCGCCAUGGUGGACGGAACCGAGCUCAAGAAGAUCCGGUCCAAUUCACGUGUUUACCAGCGCUACUUCCUCCUCGAUGCCGACAUGCAGUCUUUGCGAUGGGAGCCCUCCAAGAAGGA	0.155 ratio
GGAAGAGAUUCUUGUGAUUUUUUUUAAUGUUUAAAACAUUUCUUUUAUGAUCUUCCAGUAUGUCAUUUUUGAUGGAACUGGAAUAUUGACACUUCUCACCUAGUCUUUGUAAAGAAUCAC	0.611 ratio

Sample 2
Target: Interferon regulatory factor 7, full length, phosphomimetic (IRF7, Homo sapiens, UniProt Q92985, residues 1-503, S101K/S471D/S472D/S475D/S476D/S477D/S483D/S484D/S487D)
Sequence of UniProt Q92985 (whole entry, unmodified, looked up): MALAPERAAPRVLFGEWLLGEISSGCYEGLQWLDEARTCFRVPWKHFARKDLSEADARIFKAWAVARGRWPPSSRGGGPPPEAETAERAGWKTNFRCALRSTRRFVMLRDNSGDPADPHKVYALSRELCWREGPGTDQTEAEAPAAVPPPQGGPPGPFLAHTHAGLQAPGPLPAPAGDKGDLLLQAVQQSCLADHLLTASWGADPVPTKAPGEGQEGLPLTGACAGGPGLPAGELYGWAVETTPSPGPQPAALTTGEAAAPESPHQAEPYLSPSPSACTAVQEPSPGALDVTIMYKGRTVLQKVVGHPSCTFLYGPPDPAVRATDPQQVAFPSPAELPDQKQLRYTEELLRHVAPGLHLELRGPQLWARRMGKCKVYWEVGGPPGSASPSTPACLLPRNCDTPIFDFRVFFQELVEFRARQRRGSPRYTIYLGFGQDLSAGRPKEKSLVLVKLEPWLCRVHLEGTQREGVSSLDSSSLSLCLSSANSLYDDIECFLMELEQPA
Technique: protein-binding microarray
Form: double-stranded DNA, one strand shown
Matrix: in vitro
Concentration: 250 nM
Setting: 60-bp whole probe
Added: salmon DNA 0.4 mg/ml
Baseline: random background probes
Reading: higher = stronger binding
Shared flanks, not repeated: GCCTAGCAC … GTCTTGATTCGCTTGACGCTGCTG
Sequence	log fluorescence
TCAGAACTCAACTGTCTGACTGTGCTA	-0.122 z-score
TTAGGTATCGGGCATCGGTTAGTGCTA	-0.193 z-score
CCGTGTTTCTCAACCATTTTGTGCTAG	1.34 z-score
TTAGGTATCCTCATCCTTTAGTGCTAG	-0.0969 z-score
CCGCTTTTTTTTTTTTTTTTGTGCTAG	0.994 z-score
GACGATTCCAGTTTCGACACGTGCTAG	3.39 z-score
CTTTCTTTCCATACTGCAAGGTGCTAG	2.9 z-score
TTAGGTATCGGACTAGGTTAGTGCTAG	0.538 z-score
AAATCATTTTCTCTGTTCTAGTGCTAG	1.25 z-score
TTAGATTTCGGGTATCCATTAGTGCTA	0.772 z-score
TGGATGGTCCTGGTTTCATGGGTGCTA	0.0118 z-score
GACGAAATGGGGACTGGAGACGTGCTA	-0.397 z-score
TTAGCACTGGGGTTTCGGTTAGTGCTA	4.91 z-score
TTAGGTAGCGGGTTTCGGTTAGTGCTA	5.12 z-score
GACGGTATCCTACTGCTGATGTGCTAG	-0.556 z-score
TTAGGTTTCGACTCTCGGTTAGTGCTA	10.3 z-score
TGAGGTTCCGGTTTCGGTTAGTGCTAG	11.4 z-score
TCATCACTCTAATCTCACACTGTGCTA	0.203 z-score

Sample 3
Target: Histone acetyltransferase KAT6A, both winged helices, GST fusion (KAT6A, Homo sapiens, UniProt Q92794, residues 1-181)
Technique: protein binding microarray
Form: double-stranded DNA, one strand shown
Matrix: in vitro
Concentration: not given
Setting: 8-mer, flanks averaged, mean of 2 arrays, mostly near background
Baseline: not given
Reading: higher = stronger binding
Target sequence (chain): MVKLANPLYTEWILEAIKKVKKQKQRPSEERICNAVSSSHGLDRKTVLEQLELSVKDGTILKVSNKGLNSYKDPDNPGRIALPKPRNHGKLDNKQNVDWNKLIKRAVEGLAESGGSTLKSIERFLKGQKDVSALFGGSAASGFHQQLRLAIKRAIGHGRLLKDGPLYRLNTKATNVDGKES
Sequence	E-score
TATAAGAA	-0.166
AAACACTT	-0.12
ATAACAAC	-0.0533
GTTATGGA	-0.0743
CCCAATAA	-0.165
AGGATTGA	-0.201
TCACCGCA	0.0819
AAGTCAAG	-0.0903
CATGTCCC	0.0657
CAGCAATC	-0.201
GGTATTTA	-0.00581
AATCGATA	-0.0984
ACATGATA	-0.0368
CCTATTGA	-0.202
GTCATCCA	-0.154
CCCGACGC	0.311

Sample 4
Target: PABPC1L2, full length, GST fusion (mouse, UniProt A0ABA7IW68)
Technique: RNAcompete
Form: RNA
Matrix: in vitro
Concentration: 20 nM
Setting: 7-mer, probes averaged, single round
Baseline: mean of 7-mers
Reading: higher = stronger binding
Construct (chain): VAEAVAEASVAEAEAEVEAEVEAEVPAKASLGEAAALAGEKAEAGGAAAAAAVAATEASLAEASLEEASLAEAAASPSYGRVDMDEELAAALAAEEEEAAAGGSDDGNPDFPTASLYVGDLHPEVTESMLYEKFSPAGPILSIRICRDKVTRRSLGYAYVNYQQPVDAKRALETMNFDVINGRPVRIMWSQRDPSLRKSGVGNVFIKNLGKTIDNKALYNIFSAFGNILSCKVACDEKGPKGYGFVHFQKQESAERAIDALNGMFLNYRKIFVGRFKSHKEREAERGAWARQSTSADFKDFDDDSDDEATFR
Sequence	7-mer Z-score
CAGUUGG	-0.05
GAAGUCG	-0.26
AGCAGUG	0.037
CAUGAAU	0.0895
CGUCCAC	-0.324
UCCGAGG	-0.184
ACUGUAG	0.00798
GUUGACC	0.0189
GAGGUAC	0.0243
ACGUAUU	-0.18
GGCAUAC	0.0932
UCAAGCU	-0.277
ACCUUAG	-0.284
UAGGGUC	0.158
GUGAUCA	-0.171
CCUUUAG	-0.0736
CUGUUUG	-0.474
ACUUCAA	-0.0609
GGUGGGG	0.347
AAAGCUU	0.785
CGCUUCA	-0.324
CAUUUGG	-0.191

Sample 5
Target: Transcription factor SOX-2, HMG box (SOX2, Homo sapiens, UniProt P48431, residues 19-118)
Sequence of UniProt P48431 (19-118, looked up): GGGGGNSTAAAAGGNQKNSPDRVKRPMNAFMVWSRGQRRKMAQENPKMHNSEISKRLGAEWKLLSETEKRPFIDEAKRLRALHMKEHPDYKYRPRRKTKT
Technique: protein-binding microarray
Form: double-stranded DNA, one strand shown
Matrix: in vitro
Concentration: not given
Setting: k-mer, scored over probes, only values ≥0.25
Reading: higher = stronger binding
Sequence	E-score
AATAATT	0.456
CCAATTA	0.316
ATCACAA	0.264
AAGCTGA	0.315
AAAAGCT	0.328
CAATAGG	0.285
ATATTCA	0.347
AATTGAG	0.303
AATATAG	0.281
ACAATAG	0.458
AATTAAG	0.286
AGCATTG	0.291
AATGATA	0.319
TATGTGA	0.33
ATTGAAC	0.376
ATTGTAG	0.351
AATTTTG	0.26
AGATAAT	0.373
ATTTGTA	0.278

A few entries again (sample 5):
Sequence	E-score
ATTTGTA	0.278
AATGATA	0.319
ATTGAAC	0.376
ATATTCA	0.347
AATATAG	0.281
AAGCTGA	0.315
CCAATTA	0.316
ACAATAG	0.458
